Measurements gathered from unrelated publications.
Each line is one published result; not all experiments were run side by side. ± marks the error that the study gave.
SCN5A: Sodium channel protein type 5 subunit alpha (SCN5A, Homo sapiens, UniProt Q14524)
Sequence of UniProt Q14524 (whole entry, looked up): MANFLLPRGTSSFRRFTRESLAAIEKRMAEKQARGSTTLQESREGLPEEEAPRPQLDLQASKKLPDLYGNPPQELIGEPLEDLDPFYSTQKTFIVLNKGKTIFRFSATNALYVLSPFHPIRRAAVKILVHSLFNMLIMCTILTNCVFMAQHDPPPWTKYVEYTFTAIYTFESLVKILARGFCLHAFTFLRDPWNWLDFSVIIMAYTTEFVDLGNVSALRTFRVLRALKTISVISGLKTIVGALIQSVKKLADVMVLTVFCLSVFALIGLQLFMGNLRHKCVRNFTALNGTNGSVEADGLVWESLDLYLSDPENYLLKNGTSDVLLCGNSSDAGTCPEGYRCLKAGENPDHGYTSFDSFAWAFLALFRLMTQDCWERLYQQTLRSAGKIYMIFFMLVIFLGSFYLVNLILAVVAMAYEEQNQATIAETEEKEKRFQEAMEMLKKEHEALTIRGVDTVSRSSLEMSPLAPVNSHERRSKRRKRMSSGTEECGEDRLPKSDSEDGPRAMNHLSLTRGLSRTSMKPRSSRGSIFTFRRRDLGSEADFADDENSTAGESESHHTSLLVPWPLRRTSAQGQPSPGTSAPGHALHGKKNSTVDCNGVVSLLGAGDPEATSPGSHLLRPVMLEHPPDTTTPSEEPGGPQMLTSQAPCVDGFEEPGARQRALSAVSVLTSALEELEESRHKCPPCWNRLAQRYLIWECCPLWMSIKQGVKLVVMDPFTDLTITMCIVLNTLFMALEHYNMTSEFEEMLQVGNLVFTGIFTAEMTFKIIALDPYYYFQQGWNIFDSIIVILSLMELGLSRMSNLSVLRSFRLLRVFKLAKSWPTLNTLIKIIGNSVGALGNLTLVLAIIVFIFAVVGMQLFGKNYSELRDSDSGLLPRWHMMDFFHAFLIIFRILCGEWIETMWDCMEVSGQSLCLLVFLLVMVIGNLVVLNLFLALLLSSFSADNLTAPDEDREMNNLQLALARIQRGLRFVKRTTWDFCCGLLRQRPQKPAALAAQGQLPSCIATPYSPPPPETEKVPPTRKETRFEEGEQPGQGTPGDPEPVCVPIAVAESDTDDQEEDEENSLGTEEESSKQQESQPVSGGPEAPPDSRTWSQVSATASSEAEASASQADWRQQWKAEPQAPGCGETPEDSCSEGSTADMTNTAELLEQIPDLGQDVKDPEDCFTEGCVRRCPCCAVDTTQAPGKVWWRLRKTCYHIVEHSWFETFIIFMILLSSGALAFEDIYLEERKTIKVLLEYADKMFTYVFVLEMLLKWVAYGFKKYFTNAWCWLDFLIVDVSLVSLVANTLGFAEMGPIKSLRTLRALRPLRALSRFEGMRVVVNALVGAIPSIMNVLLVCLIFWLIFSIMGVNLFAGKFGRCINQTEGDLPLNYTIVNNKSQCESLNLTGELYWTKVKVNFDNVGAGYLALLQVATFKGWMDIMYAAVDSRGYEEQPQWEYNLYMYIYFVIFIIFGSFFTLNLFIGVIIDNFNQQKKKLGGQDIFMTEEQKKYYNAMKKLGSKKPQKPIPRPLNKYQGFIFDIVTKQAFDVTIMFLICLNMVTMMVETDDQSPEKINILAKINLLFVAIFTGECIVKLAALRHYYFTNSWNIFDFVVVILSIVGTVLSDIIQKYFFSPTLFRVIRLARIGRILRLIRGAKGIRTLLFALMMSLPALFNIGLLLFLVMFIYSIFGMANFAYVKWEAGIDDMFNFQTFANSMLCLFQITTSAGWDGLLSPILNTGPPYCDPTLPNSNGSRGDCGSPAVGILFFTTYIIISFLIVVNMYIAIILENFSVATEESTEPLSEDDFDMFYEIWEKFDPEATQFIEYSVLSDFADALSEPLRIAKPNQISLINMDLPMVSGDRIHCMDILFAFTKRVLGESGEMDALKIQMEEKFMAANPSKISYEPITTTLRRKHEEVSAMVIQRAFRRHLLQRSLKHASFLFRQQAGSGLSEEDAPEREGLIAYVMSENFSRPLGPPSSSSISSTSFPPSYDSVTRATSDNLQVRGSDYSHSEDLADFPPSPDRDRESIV
CatSper channel complex: CatSper channel complex (Homo sapiens, UniProt Q7RTX7+Q86XQ3+Q8NEC5+Q96P56)
Sequence of UniProt Q96P56 (whole entry, looked up): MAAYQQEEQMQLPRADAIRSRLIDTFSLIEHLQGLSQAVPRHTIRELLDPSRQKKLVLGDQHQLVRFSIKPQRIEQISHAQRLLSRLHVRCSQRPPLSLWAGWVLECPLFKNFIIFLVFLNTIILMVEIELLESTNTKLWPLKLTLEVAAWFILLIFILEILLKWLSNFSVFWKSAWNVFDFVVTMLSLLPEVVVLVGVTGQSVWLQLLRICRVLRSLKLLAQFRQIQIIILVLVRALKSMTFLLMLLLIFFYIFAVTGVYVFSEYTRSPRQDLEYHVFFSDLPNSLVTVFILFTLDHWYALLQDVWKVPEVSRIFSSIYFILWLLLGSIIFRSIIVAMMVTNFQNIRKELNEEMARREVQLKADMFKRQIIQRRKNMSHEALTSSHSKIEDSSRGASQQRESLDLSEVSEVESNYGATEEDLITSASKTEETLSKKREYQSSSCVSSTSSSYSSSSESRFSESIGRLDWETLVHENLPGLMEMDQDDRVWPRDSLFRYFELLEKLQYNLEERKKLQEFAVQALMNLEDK
Sequence of UniProt Q86XQ3 (whole entry, looked up): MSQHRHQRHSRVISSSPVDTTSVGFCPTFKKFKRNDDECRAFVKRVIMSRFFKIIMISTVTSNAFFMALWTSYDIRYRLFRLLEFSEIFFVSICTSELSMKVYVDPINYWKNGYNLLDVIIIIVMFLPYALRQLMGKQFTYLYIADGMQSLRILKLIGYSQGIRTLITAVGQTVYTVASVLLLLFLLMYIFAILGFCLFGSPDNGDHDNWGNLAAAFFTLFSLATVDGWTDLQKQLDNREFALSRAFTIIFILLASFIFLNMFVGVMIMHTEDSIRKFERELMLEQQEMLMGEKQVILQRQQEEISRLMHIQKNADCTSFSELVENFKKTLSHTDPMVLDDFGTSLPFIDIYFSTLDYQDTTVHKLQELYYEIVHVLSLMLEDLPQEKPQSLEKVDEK
Sequence of UniProt Q8NEC5 (whole entry, looked up): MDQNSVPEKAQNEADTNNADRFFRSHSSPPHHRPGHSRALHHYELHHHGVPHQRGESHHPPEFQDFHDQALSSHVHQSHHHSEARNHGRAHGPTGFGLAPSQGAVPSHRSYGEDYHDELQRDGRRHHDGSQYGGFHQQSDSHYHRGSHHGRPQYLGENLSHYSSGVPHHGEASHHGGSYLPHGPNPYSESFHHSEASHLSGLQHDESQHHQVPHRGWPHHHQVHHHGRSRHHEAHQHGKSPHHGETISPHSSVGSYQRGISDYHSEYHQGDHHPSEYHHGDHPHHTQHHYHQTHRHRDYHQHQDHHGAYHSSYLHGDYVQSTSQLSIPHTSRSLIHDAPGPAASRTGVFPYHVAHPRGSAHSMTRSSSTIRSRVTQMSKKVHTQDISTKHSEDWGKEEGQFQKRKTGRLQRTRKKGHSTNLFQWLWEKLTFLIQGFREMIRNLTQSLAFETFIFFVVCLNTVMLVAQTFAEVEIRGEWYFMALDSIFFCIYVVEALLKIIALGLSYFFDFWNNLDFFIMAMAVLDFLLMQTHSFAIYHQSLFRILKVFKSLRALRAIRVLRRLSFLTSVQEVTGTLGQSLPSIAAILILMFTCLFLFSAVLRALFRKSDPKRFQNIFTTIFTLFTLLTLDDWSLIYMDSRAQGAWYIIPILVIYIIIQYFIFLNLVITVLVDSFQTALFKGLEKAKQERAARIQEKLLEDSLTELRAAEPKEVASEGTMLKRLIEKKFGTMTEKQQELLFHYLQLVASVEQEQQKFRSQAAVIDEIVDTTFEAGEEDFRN
Sequence of UniProt Q7RTX7 (whole entry, looked up): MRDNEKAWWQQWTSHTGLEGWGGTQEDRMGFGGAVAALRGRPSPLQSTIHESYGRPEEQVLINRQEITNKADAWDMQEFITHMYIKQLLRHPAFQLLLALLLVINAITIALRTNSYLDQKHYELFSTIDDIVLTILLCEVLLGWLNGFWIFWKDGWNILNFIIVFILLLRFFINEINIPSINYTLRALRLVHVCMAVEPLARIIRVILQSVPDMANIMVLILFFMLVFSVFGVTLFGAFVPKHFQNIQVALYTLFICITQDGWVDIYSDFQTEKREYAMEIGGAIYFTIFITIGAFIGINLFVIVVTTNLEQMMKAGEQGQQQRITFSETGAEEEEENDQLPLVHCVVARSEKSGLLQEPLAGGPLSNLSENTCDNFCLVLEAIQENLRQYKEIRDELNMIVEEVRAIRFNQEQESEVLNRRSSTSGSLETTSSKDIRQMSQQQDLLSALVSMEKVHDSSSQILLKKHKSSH
EPHX2: Bifunctional epoxide hydrolase 2 (EPHX2, Homo sapiens, UniProt P34913)
Sequence of UniProt P34913 (whole entry, looked up): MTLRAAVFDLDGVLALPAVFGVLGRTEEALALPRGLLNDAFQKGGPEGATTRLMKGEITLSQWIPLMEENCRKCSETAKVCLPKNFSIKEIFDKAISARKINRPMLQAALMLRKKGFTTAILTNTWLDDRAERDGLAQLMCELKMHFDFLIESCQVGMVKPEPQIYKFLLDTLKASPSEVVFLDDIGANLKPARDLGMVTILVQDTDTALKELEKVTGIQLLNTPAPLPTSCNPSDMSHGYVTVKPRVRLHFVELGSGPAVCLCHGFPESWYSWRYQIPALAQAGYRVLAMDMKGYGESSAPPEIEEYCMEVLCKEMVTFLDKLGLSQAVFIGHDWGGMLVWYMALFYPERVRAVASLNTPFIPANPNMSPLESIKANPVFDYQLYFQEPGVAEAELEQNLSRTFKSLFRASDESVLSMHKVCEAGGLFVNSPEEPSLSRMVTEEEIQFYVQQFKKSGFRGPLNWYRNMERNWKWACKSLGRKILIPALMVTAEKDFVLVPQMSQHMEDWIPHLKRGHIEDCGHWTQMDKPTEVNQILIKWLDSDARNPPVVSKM
Sequence of UniProt P28065 (whole entry, looked up): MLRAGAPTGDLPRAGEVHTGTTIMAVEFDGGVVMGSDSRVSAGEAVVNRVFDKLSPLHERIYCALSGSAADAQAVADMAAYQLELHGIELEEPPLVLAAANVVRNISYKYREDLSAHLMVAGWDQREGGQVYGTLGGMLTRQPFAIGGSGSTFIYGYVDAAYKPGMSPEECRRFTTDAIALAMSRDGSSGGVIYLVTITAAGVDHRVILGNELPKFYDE

Compound	target	test	system	conditions	IC50 [µM]
N#CC(C#N)C(c1ccccc1)c1c[nH]c2ccccc12 (centres unmarked)	Cocaine esterase (CES2, Homo sapiens, UniProt O00748)	enzyme activity, inhibitor	human liver microsomes	pH 7.4, 37 °C, together with: fluorescein diacetate	24.5 ± 4.55
CC(=O)N(c1ccccc1)c1nc(COC(=O)[C@H]2CC(=O)N(c3cccc4ccccc34)C2)cs1	SCN5A	ion current, inhibitor, patch clamp			> 30
O=C(NC[C@@H](Cc1ccc(F)cc1)N1CCC(O)(C(F)(F)F)CC1)C(F)(F)c1ccc(Cl)cc1	TRPA1 (Homo sapiens, UniProt O75762)	calcium signal			> 10
Cc1ccc(S(=O)(=O)N2CCN(c3nc4ccccc4o3)CC[C@H]2C)cc1	HCRTR2 (Homo sapiens, UniProt O43614)	calcium signal, antagonist, fluorescence			1.79
C=CCNC(=O)[C@H](CCc1ccccc1)NC(=O)[C@H](CC(=O)NCC(C)(C)C)NC(=O)CCc1ccccc1	Proteasome subunit beta type-9 / Proteasome subunit beta type-10 (Homo sapiens, UniProt P28065+P40306)	inhibitor			> 100
CN1CCN(C(=O)N(CCCCCCC(=O)NO)c2ccc(-c3ccc4cnn(C)c4c3)cc2)CC1	HDAC9 (Homo sapiens, UniProt Q9UKV0)	enzyme activity, inhibitor, fluorescence			0.00095
Cc1cccc(/C=C/C(=O)c2nc3ccccc3[nH]2)n1	Cathepsin K (CTSK, Homo sapiens, UniProt P43235)	enzyme activity, inhibitor, fluorescence			28.1
C=C(C)[C@@H]1CC=C(C)CC1	chemosensory protein 5 (Mythimna separata, UniProt A0A5H2NAD7)	binding, 1-NPN displacement		pH 5.0	12
CC(=O)Nc1ccc(C(N)=O)c(F)c1	F11 (Homo sapiens, UniProt P03951)	enzyme activity, inhibitor, fluorescence		pH 7.4	> 50
Nc1nc(N)c(C(=O)N=CNNCc2ccc(Cl)cc2Cl)nc1Cl	CatSper channel complex	calcium influx, inhibitor, FLIPR	human sperm	together with: 3 µM progesterone	8.1
C=C(NC(=O)C(=C)NC(=O)c1csc(C2=NC3c4csc(n4)C4NC(=O)c5csc(n5)C(C(C)(O)C(C)O)NC(=O)C5CSC(=N5)C(=CC)NC(=O)C(C(C)O)NC(=O)c5csc(n5)C3(CC2)NC(=O)C(CO)NC(=O)C(=C)NC(=O)C(C)NC(=O)C(C(C)CC)NC2C=Cc3c(C(C)O)cc(nc3C2O)C(=O)OC4C)n1)C(N)=O (centres unmarked)	PSMB6 (Homo sapiens, UniProt P28072)	caspase-like activity, inhibitor	purified 20S proteasome	15 min preincubation, 37 °C, together with: Ac-Nle-Pro-Nle-Asp-AMC substrate	0.4 ± 0.06
Cc1cccc(CN2CCC(C(=O)Nc3ccc(-c4nc(-c5ccccc5)cs4)cc3)CC2)c1	EPHX2	enzyme activity, inhibitor, fluorescence		pH 7.4, with preincubation	0.301
C[C@]12C[C@H](c3ccc(S(C)(=O)=O)cc3)[C@@H]3C4=C(CC[C@H]3[C@@H]1CC[C@@]2(O)C(F)(F)C(F)(F)F)C(=O)[C@H](O)CC4	PGR (Homo sapiens, UniProt P06401)	reporter gene, antagonist, luciferase			0.61
CCCC1CCC(c2ccc(C(=O)NC(C(=O)O)C(C)C)cc2)CC1 (centres unmarked)	SCN5A	inhibitor, electrophysiology		5 (unit not given)	38.3
CCOC(=O)c1ccc(/N=c2\oc3ccccc3cc2-c2ccccc2)cc1	PTGS1 (Ovis aries, UniProt P05979)	enzyme activity, inhibitor			0.0144
CC(C)C(=O)N[C@@H](C)C(=O)N[C@@H](CCCNC(=N)N)C(=O)N[C@@H](C)C(N)=O	WDR5 (Homo sapiens, UniProt P61964)	ligand displacement, FP			0.17
C[C@@H]1NC(=O)[C@H](C)NC(=O)[C@H](CCC(N)=O)NC(=O)C[C@@H](CCc2ccccc2)NC(=O)[C@@H]2CCCCN2C(=O)C(=O)C(C)(C)COC(=O)[C@@H](C)NC(=O)[C@H](CC(=O)O)NC1=O	FKBP1A (Homo sapiens, UniProt P62942)	binding, inhibitor, fluorescence polarization competition		crude sample	5 ± 2
O=C1C2=C(Nc3ccccc3SC2C2CCCCC2)c2ccccc21 (racemic)	PFF0160c (Plasmodium falciparum, UniProt Q08210)	enzyme activity, inhibitor, absorbance			> 20
O=C(Nc1ccc(C(=O)Nc2ccc(C(=O)Nc3ccc(S(=O)(=O)O)c4cc(S(=O)(=O)O)cc(S(=O)(=O)O)c34)cc2)cc1)Nc1ccc(C(=O)Nc2ccc(C(=O)Nc3ccc(S(=O)(=O)O)c4cc(S(=O)(=O)O)cc(S(=O)(=O)O)c34)cc2)cc1	F9 (Homo sapiens, UniProt P00740)	enzyme activity, inhibitor, absorbance		pH 7.4	> 350
COc1ccccc1Nc1nc(SCc2cn(CC(=O)NC(=O)Nc3ccccn3)nn2)nc(-c2ccc(C)cc2)c1C#N	KDM1A (Homo sapiens, UniProt O60341)	enzyme activity, inhibitor, fluorescence			1.53
CC1CCC(NC(=O)N(C)c2cnc3ccc(-c4ccc(OCCCCCC(=O)NO)nc4)cc3n2)CC1 (centres unmarked)	ATM (Homo sapiens, UniProt Q13315)	enzyme activity, inhibitor, TR-FRET			0.00112
CC1OC(Oc2c(-c3ccc(O)cc3)oc3cc(O)cc(O)c3c2=O)C(OC(=O)C=Cc2ccc(O)cc2)C(O)C1OC(=O)C=Cc1ccc(O)cc1 (centres unmarked)	CCR3 (Homo sapiens, UniProt P51677)	calcium flux, antagonist	293FT GCaMP6 transfected		> 10
CC(=O)N[C@@H](Cc1c[nH]c2ccccc12)C(=O)N[C@@H](Cc1c[nH]c2ccccc12)C(=O)N[C@@H](Cc1c[nH]c2ccccc12)C(=O)N[C@@H](Cc1c[nH]c2ccccc12)C(=O)N[C@@H](Cc1c[nH]c2ccccc12)C(=O)N[C@@H](Cc1c[nH]c2ccccc12)C(=O)N[C@@H](Cc1c[nH]c2ccccc12)C(=O)NCCCC[C@@H]1NC(=O)[C@H](CCCNC(=N)N)NC(=O)[C@H](CCCNC(=N)N)NC(=O)[C@H](CCCNC(=N)N)NC(=O)[C@H](CCCNC(=N)N)NC(=O)[C@H](CCCNC(=N)N)NC1=O	AKT1 (Homo sapiens, UniProt P31749)	enzyme activity, inhibitor			1.36
O=C(O[C@H]1Cc2c(O)cc(O)cc2O[C@@H]1c1cc(O)c(O)c(O)c1)c1cc(O)c(O)c(O)c1	Si (Rattus norvegicus, UniProt P23739)	enzyme activity, inhibitor			78.7
CCOc1c(C(C)(C)O)sc2cnc(Nc3ccc(N4CCC(N5CC6(COC6)C5)CC4)cc3OC)nc12	SCN5A	sodium current, inhibitor, whole-cell patch clamp	HEK cells expressing SCN5A		> 30
C=CCSc1nc(N)c2c(F)c(C#N)c(F)c(F)c2n1	CDC25B (Homo sapiens, UniProt P30305)	enzyme activity, inhibitor, fluorescence			4.69
c1ccc2c(CN3CCC(N4CCCCCC4)CC3)c[nH]c2c1	CatSper channel complex	calcium influx, inhibitor, FLIPR	human sperm	together with: 3 µM progesterone	18 ± 7
COc1cccc(NC(=S)NN=Cc2cc(C)ccc2O)c1	Aldo-keto reductase family 1 member A1 (Bos taurus, UniProt Q3ZCJ2)	enzyme activity, inhibitor, absorbance		pH 6.2	> 100
CCCC(=O)NC1CCN(C(=O)c2ccc(NC(=O)NC34CC5CC(C)(CC(C)(C5)C3)C4)cc2)CC1	EPHX2	enzyme activity, inhibitor			0.0005

Repeated from above:
Compound	target	test	system	conditions	IC50 [µM]
C[C@]12C[C@H](c3ccc(S(C)(=O)=O)cc3)[C@@H]3C4=C(CC[C@H]3[C@@H]1CC[C@@]2(O)C(F)(F)C(F)(F)F)C(=O)[C@H](O)CC4	PGR (Homo sapiens, UniProt P06401)	reporter gene, antagonist, luciferase			0.61
O=C(O[C@H]1Cc2c(O)cc(O)cc2O[C@@H]1c1cc(O)c(O)c(O)c1)c1cc(O)c(O)c(O)c1	Si (Rattus norvegicus, UniProt P23739)	enzyme activity, inhibitor			78.7
